# Results pooled from the literature.
# Lines come from different studies, so protocols differ. Several values in a cell are separate wells, animals, samples, runs or records. ± gives the spread as reported.
Structure (SMILES),assay,test system,setting,how to read,measurement,result
CC(C)(c1ccc(O)cc1)c1ccc(O)cc1,,cow whole milk,200 nM,baseline: milk fat over skim milk,milk fat partition ratio,13.9
Cc1ccc([C@@H]2O[C@H](CO)[C@@H](O)[C@H](O)[C@H]2O)cc1Cc1ccc(-c2ccc(F)cc2)s1,item: inorganic phosphorus,Japanese type 2 diabetes patients,"25 mg, day 16, 24 h urine collection",baseline: baseline,urinary phosphate excretion change,-53.4 mg
Cn1cc(-c2cn3nccc3c(-c3cnn([C@]4(CC#N)C[C@@H](C#N)C4)c3)n2)cn1,,"healthy humans fed, plasma","oral, 100 mg once daily, day 10, geometric mean",baseline: day 10 over day 1,observed accumulation ratio,1.1
N#Cc1cc(NC(=O)[C@H]2c3ccccc3C(=O)N(CC(F)(F)F)[C@@H]2c2cccnc2)ccc1F,,human,"900 mg, 10 h post dose",,venous methemoglobin,1.7%
CC(C)(C(=O)N1CCOc2c(C#N)cncc2C1)C(F)F,item: Dyspepsia,human,"oral, 15 mg twice daily, 14 days, multiple ascending dose",,subjects with adverse event,12.5%
CO[C@H]1C[C@@H]2CC[C@@H](C)[C@@](O)(O2)C(=O)C(=O)N2CCCC[C@H]2C(=O)O[C@H]([C@H](C)C[C@@H]2CC[C@@H](OC(=O)NCCOCCOCCOCCOCCOCCOCCOCCOCCC(=O)N3CCc4cc(Cn5nc(-c6ccc7oc(N)nc7c6)c6c(N)ncnc65)ccc4C3)[C@H](OC)C2)C[C@@H](O)[C@H](C)/C=C(\C)[C@@H](O)[C@@H](OC)C(=O)[C@H](C)C[C@H](C)/C=C/C=C/C=C/1C,,"human patients, plasma","intravenous, 12 mg, cycle 1 day 15, weekly dosing, mean",,AUClast,0.679 µM·h
NC1(C(=O)N[C@@H](CCO)c2ccc(Cl)cc2)CCN(c2nc[nH]c3nccc2-3)CC1,,metastatic CRPC patients,"320 mg b.i.d., any grade, treatment-related, added: enzalutamide 160 mg daily",,incidence of maculopapular rash,0%
NC(=O)CCNC(=O)c1ccc([C@H]2[C@@H](F)[C@@H](F)C[C@@H](F)[C@H]2F)cc1,hepatocyte stability,cryopreserved human hepatocytes,1 µM,,hepatic clearance,6.2 mL/min/kg
O=C1CC[C@H](N2Cc3cc(N4CCN(CC5CCN(c6ccc([C@@H]7c8ccc(O)cc8CC[C@@H]7c7ccccc7)cc6)CC5)CC4)ccc3C2=O)C(=O)N1,,human,"oral, 200 mg, added: dabigatran etexilate 75 mg",,participants with TRAEs,4.2%
O=C(c1ccc([C@H]2[C@@H](F)[C@@H](F)C[C@@H](F)[C@H]2F)cc1)N1CC(O)C1,liver microsome stability,cynomolgus liver microsomes,1 µM,,hepatic clearance,4.9 mL/min/kg
CCn1c(=O)c(-c2cc(NC(=O)Nc3ccccc3)c(F)cc2Br)cc2cnc(NC)cc21,item: investigations,"human, mild hepatic impairment","oral, 50 mg single dose",,participants with grade ≥ 3 TEAE,37.5%
CCOc1c([C@H](C)n2nc(C)c3c(N)ncnc32)cc(Cl)c(F)c1[C@@H]1CNC(=O)C1,,"patients with B-cell malignancies, plasma","oral, 10 mg once daily, cycle 1 day 15, monotherapy",,Cmin,98 nM
Cl.[2H]C([2H])([2H])CC(=O)c1cnc(NC(=O)C2CC2)cc1Nc1cccc(-c2ncn(C([2H])([2H])[2H])n2)c1OC,geometric mean,human,"oral, 40 mg twice daily, day 1, fasted, tablet, multiple dose",,AUC(0-tau),1570 ng·h/mL
CNCc1ccc(-c2[nH]c3cc(F)cc4c3c2CCNC4=O)cc1,,human patients,"oral, 240 mg twice daily, all grades",,pulmonary embolism incidence,0%
O=C(c1ccc(F)cc1)C1CCN(CCn2c(=O)[nH]c3ccccc3c2=O)CC1,,human liver microsomes,,,intrinsic clearance,45.3 mL/min/kg
CN(CCC#N)C(=O)c1ccc(C2CCCCC2)cc1,liver microsome stability,human liver microsomes,"1 µM, without NADPH",,hepatic clearance,3.9 mL/min/kg
O=C(Nc1nc2cccc(-c3ccc(CN4CCS(=O)(=O)CC4)cc3)n2n1)C1CC1,item: general and administration-site disorders,rheumatoid arthritis patients,"oral, 30 mg once daily, 4 weeks, any relatedness",,treatment-emergent adverse events,0%
CCc1cc2ncc(CN3CCN(c4ccc(C(=O)NC)nc4)CC3)cc2[nH]c1=O,,"female rat, blood","oral, 25 mg/kg/day, 4 weeks",baseline: vehicle control,Lymphocytes count ratio,0.77
Cc1cc(-c2nccc3c2ccn3CC(=O)Nc2ccc(-c3cnccn3)cn2)ccn1,,human,"SAD part, single 40 mg dose",,subjects with Vomiting TEAEs,16.7%
CCc1c(-c2ccccc2)c(-c2ccccc2)nn1-c1ccccc1-c1cccc(OCC(=O)O)c1,,"Sprague-Dawley rat, -Kidney homogenate","oral, 10 mg/kg, 1 h",,concentration,745 ng/mL and 502 ng/mL
CN1CCN(c2cccc3c2CCN(C(=O)/C=C/c2c(-n4cnnn4)ccc(Cl)c2F)[C@@H]3C(=O)Nc2ccc(C(=O)O)cc2)C(=O)C1,,healthy human subjects,"intravenous infusion, 4 mg/h, 2 h",,subjects with serious adverse event,0%
CSCC[C@H](NC(=O)CN)C(=O)N[C@@H](CCCNC(=N)N)C(=O)N[C@@H](Cc1c[nH]c2ccccc12)C(=O)N[C@@H](CO)C(=O)N[C@@H](CCCNC(=N)N)C(=O)N[C@@H](CCCCN)C(=O)N[C@@H](CCSC)C(=O)N1CCC[C@H]1C(=O)N[C@@H](CS)C(=O)N[C@H](C(=O)N[C@@H](CO)C(N)=O)C(C)C,"12G5 competition, SUP-T1 cells",human plasma,"concentration not given, 2 h",,remaining activity,43 ± 3%
CC(C)C[C@H](N)C(=O)N[C@@H](Cc1c[nH]c2ccccc12)C(=O)N[C@@H](Cc1c[nH]c2ccccc12)C(=O)N[C@@H](CCCNC(=N)N)C(=O)N[C@@H](Cc1c[nH]c2ccccc12)C(=O)N[C@@H](Cc1c[nH]c2ccccc12)C(=O)N[C@@H](CCCNC(=N)N)C(=O)N[C@@H](Cc1c[nH]c2ccccc12)C(=O)N[C@@H](CCCNC(=N)N)C(=O)O,circular dichroism,50% TFE,,,beta-sheet content,18.4%
O=C(O)CCC(=O)O.[2H]C([2H])([2H])Oc1cc(C)c2[nH]ccc2c1CN1CC[C@@H](C2CC2)C[C@H]1c1ccc(C(=O)O)cc1,multiple ascending dose,healthy Chinese subjects,125 mg twice daily,,subjects with TEAE Anemia,0%
O=C(O)CCCOc1ccc([18F])cc1-c1cc(-c2ccccc2C(F)(F)F)n(-c2ccccc2)n1,gamma counting,"male ddY mice, brain","intravenous, 2.1 MBq, 1 min",,radioactivity uptake,0.12 ± 0.06 SUV
CN(C(=O)n1cnc(-c2cccnc2)c1)[C@H]1CC[C@H](O)CC1,,"Wistar rat, midbrain","oral, 10 mg/kg of BIA 10-2474, 1 h, single dose",,concentration,18.6 ± 0.9 ng/g
CCN1/C(=C/C(C)=O)Sc2ccc(F)cc21,,cynomolgus monkey,"oral, 10 mg/kg, 1 h post-dose",,QT interval,240 ± 22 ms
C=CC(=O)Nc1cc(Nc2nccc(-c3cn(C4CC4)c4ccccc34)n2)c(OC)cc1N(C)CCN(C)C,long-term storage stability,rat plasma,"40 ng/mL, 3 weeks, -80 °C",baseline: nominal concentration,relative error,-0.6%
N#Cc1ccc2c(c1)[C@H]1CCCN(C(=O)c3ccc4[nH]cnc4c3)[C@H]1C2,,human,"360 mg, day 15",baseline: baseline,cortisol level change,85 nmol/L
CNC(=O)c1ccc(-c2cnc3ncc(Cc4ccc5ncccc5c4)n3n2)cc1F,,"human, healthy subjects, plasma","oral, 200 mg single dose, adjusted geometric mean",,unbound Cmax,50.9 ng/mL
Cc1ccc(O)c(-n2nc3ccccc3n2)c1,exposure assessment,"human, age 21-60 years, sunscreen",,,dermal uptake,867 ng/kg body weight/day
CN[C@H](CC(C)C)C(=O)N[C@H]1C(=O)N[C@@H](CC(N)=O)C(=O)N[C@H]2C(=O)N[C@H]3C(=O)N[C@H](C(=O)N[C@H](C(=O)O)c4cc(O)cc(O)c4-c4cc3ccc4O)[C@H](O)c3ccc(c(Cl)c3)Oc3cc2cc(c3O[C@@H]2O[C@H](CO)[C@@H](O)[C@H](O)[C@H]2O[C@H]2C[C@](C)(N)[C@H](O)[C@H](C)O2)Oc2ccc(cc2Cl)[C@H]1O,,"guinea pig, tissue cage fluid","intraperitoneal, 15 mg/kg single, 12 h",,Cmin,1460 ng/mL
NC(=O)CCNC(=O)c1ccc(C2CCCCC2)cc1,hepatocyte stability,cryopreserved rat hepatocytes,1 µM,,hepatic clearance,47 mL/min/kg
C[C@H]1C=C(Cc2ccccc2)C(=O)O1,soil adsorption,tested soils,geometric mean,,KFoc,68 mL/g
CCn1ncc2c1-c1cnc(N)c(c1)O[C@H](C)c1cc(F)ccc1-c1nn(C)nc1C2,,"female athymic nude mice, sample B PDX","oral, 15 mg/kg twice daily for 21 days, 1 h",,unbound plasma concentration,737 ± 58 nM
NC(=O)N1c2ccccc2CC(O)c2ccccc21 (stereo not shown),population PK modelling,"human patients, plasma","dose not given, weight-scaled, shared estimated exponent",,volume of distribution,39.8 L
CC(C(=O)Nc1ccc(C2CCCCC2)cc1)n1cncn1 (stereo not shown),,cryopreserved rat hepatocytes,1 µM,,hepatic clearance,39 mL/min/kg
COc1cc2nccc(Oc3ccc(NC(=O)c4cc5c(n(-c6ccccc6)c4=O)CCCC5=O)nc3)c2cc1OC,,"human, relapsed/refractory AML","oral, dose not given, grade ≥3, any causality, all doses",,patients with febrile neutropenia,35%
Cc1ccc(Sc2ccccc2N2CCNCC2)c(C)c1,item: AST increased,healthy adult men,"oral, 20 mg daily, 12 days",,participants with TEAE,0%
CC(C)C[C@@H]1NC(=O)CN(C)C(=O)[C@H](Cc2ccccc2)NCc2ccc(n2C)CNC1=O,PAMPA,lecithin in dodecane,"100 µM, 17 h, pH 6.4, 37 °C",,-log Pe,5.93
O=C(Cn1ccnc1)Nc1ccc([C@H]2[C@@H](F)[C@@H](F)C[C@@H](F)[C@H]2F)cc1,,rat liver microsomes,1 µM,,hepatic clearance,9.2 mL/min/kg
C=CC(=O)NC1CCN(c2ncc3ncnc(Nc4ccc(Oc5ccc6c(c5)ncn6C)c(C)c4)c3n2)CC1,item: total radioactivity,"healthy male volunteers, plasma","oral solution, 60 mg, added: [14C]-labelled compound",,AUC0–tz,23.7 µM·h
CN1C(=O)[C@@H](NC(=O)c2nnc(Cc3ccccc3)[nH]2)COc2cccnc21,phase I multiple ascending dose,"human, male and female","oral, 50 mg, 14 days",,TEAE leading to permanent discontinuation,12.5%
O=C1NCCc2nc(OCc3cccc(F)c3)ccc21,item: Irritability,Sprague-Dawley rat male,"oral, 100 mg/kg, 4 h",direction not given,Irwin test score,0.17
O=C(COCC(F)F)Nc1ccc(C2CCCCC2)cc1,hepatocyte stability,cryopreserved human hepatocytes,1 µM,,hepatic clearance,19 mL/min/kg
C[C@]12CC[C@@H]3c4ccc(O)cc4CC[C@H]3[C@@H]1CCC2=O,,whole cow milk,20 nM nominal,,dose fraction in skim milk,22.3%
CC(=O)N1CC(C(=O)Nc2ccc(C3CCCCC3)cc2)C1,liver microsome stability,human liver microsomes,"1 µM, without NADPH",,hepatic clearance,3.9 mL/min/kg
C#C[C@]1(O)CC[C@H]2[C@@H]3CCC4=CC(=O)CC[C@@H]4[C@H]3CC[C@@]21C,,"HIV-infected women without protease inhibitor, serum","oral, 0.35 mg, steady state",,Cmin geometric mean,0.13 ng/mL
CC[C@@H]1CN(C(=O)NCC(F)(F)F)C[C@@H]1c1cnc2cnc3[nH]ccc3n12,population PK model,"healthy, RA and CD subjects, plasma","oral, immediate-release formulation",,Vp/F,66.3 L
